# Results collected from several papers.
# Several values in a cell are separate wells, animals, samples, runs or records. ± marks the error that the study gave.
Compound,cell line,test,test system,conditions,how to read,quantity,value
O=C1c2ccccc2C(=O)c2ccccc21,HK-2 co-cultured with HepaRG,MTT,,"266.67 µM, 48 h",relative to: untreated control,viability,20.2 ± 2.88%
O=C(O)C(F)(F)C(F)(F)C(F)(F)F,hTERT-RPTEC-OAT1,,,"concentration not given, Transwell, basolateral-to-apical addition",,LDH release,17.8 mU/mL and 10 mU/mL and 13.8 mU/mL and 18.6 mU/mL
CCCCCCCCCC(=O)N[C@@H](Cc1c[nH]c2ccccc12)C(=O)N[C@H](CC(N)=O)C(=O)N[C@@H](CC(=O)O)C(=O)N[C@@H]1C(=O)NCC(=O)N[C@@H](CCCNC(=O)CCC(=O)N2Cc3ccccc3-c3c(nnn3CCC[C@H](NC(=O)CCCCC[N+]3=C(C=CC4=CC(=CC=C5N(C)c6ccccc6C5(C)C)CCC4)C(C)(C)c4ccccc43)C(=O)NCCCCNC(=O)CCC(=O)N3Cc4ccccc4-c4c(nnn4CCOCCOCCOCCNC(=O)CN4CCN(CC(=O)NCCNC(=O)c5cccc(O)c5O)CCN(CC(=O)NCCNC(=O)c5cccc(O)c5O)CCN(CC(=O)NCCNC(=O)c5cccc(O)c5O)CC4)-c4ccccc43)-c3ccccc32)C(=O)N[C@@H](CC(=O)O)C(=O)N[C@H](C)C(=O)N[C@@H](CC(=O)O)C(=O)NCC(=O)N[C@H](CO)C(=O)N[C@@H]([C@H](C)CC(=O)O)C(=O)N[C@@H](CC(=O)c2ccccc2N)C(=O)O[C@@H]1C,MCF7,cytotoxicity,,"5 days, 5% FBS",,EC50,> 64 µM
CC1=C(O)C(=O)C=C2C1=CC=C1[C@@]2(C)CC[C@@]2(C)[C@@H]3C[C@](C)(C(=O)O)CC[C@]3(C)CC[C@]12C,COS-7,,,"10 µM, 24 h, 0.1% DMSO, unit not given",relative to: vehicle control,necrotic cells,2.14 ± 1.51
CC[C@H](C)[C@H](NC(=O)[C@H](CCCCN)NC(=O)[C@H](CCC(N)=O)NC(=O)[C@H](CCSC)NC(=O)[C@H](CCC(N)=O)NC(=O)[C@H](CC(C)C)NC(=O)[C@H](CCC(N)=O)NC(=O)[C@H](CO)NC(=O)[C@H](CCCCN)NC(=O)CNC(=O)[C@H](C)NC(=O)[C@@H](N)CC(C)C)C(=O)N[C@@H](Cc1ccccc1)C(=O)N[C@@H](CCCCN)C(=O)N[C@@H](CCCCN)C(=O)N[C@@H](CC(C)C)C(=O)N1CCC[C@H]1C(=O)NCC(=O)N[C@@H](Cc1ccccc1)C(=O)N[C@@H](CCCCN)C(=O)N[C@@H](CCCCN)C(=O)N[C@H](C(=O)N[C@@H](Cc1c[nH]cn1)C(=O)N[C@H](C(=O)N[C@@H](CC(C)C)C(=O)NCC(=O)N[C@@H](Cc1ccccc1)C(=O)N[C@@H](CCCNC(=N)N)C(=O)N1CCC[C@H]1C(=O)N[C@@H](CCCCN)C(=O)N[C@@H](CCCCN)C(=O)O)C(C)C)[C@@H](C)CC,HaCaT,"cell viability, MTT",,,,CC50,47.4 µM
O=S(=O)(O)C(F)(F)C(F)(F)C(F)(F)C(F)(F)F,hTERT-RPTEC-OAT1,,,"concentration not given, Transwell, apical-to-basolateral addition",,LDH release,17.2 mU/mL and 61.4 mU/mL and 10.5 mU/mL and 59.8 mU/mL
COc1cccc2c1C(=O)c1c(O)c3c(c(O)c1C2=O)C[C@@](O)(C(=O)CO)C[C@@H]3O[C@H]1C[C@H](N)[C@H](O)[C@H](C)O1,MCF7,MTT,,"10 µM, 72 h, 10% FBS",,viability,30%
Cc1cc(C(C)(C)c2ccc(O)c(C)c2)ccc1O,"HepG2 spheroids, dissociated",annexin V-FITC/PI flow cytometry,,"0.1 µM, 24 h",,late apoptotic cells,12.5 ± 1.7%
COc1ccc2c(c1OC)C(=O)c1c(cc(C)c(O)c1OC)C2=O,HepaRG co-cultured with HK-2,MTT,,"33.33 µM, 48 h",relative to: untreated control,cell viability,85.7 ± 5.06%
CC[C@H](C)[C@H](NC(=O)CNC(=O)[C@H](CCSC)NC(=O)[C@H](CO)NC(=O)[C@@H](NC(=O)[C@H](CCC(N)=O)NC(=O)[C@H](CC(C)C)NC(=O)CNC(=O)[C@@H](NC(=O)[C@H](CO)NC(=O)[C@H](CCCCN)NC(=O)[C@H](CC(C)C)NC(=O)[C@H](CCCCN)NC(=O)[C@H](CCCCN)NC(=O)[C@H](CCCCN)NC(=O)[C@@H](NC(=O)[C@H](CCCCN)NC(=O)[C@@H]1CSSC[C@H](NC(=O)[C@H](CCCCN)NC(=O)[C@@H](N)CCCCN)C(=O)N[C@@H](CCCCN)C(=O)N[C@@H](Cc2ccccc2)C(=O)N[C@@H](CC(C)C)C(=O)N1)C(C)C)C(C)C)[C@@H](C)CC)C(=O)O,Xenopus laevis kidney cells,MTT,,24 h,,lowest toxic concentration,> 6.25 µM
O=c1ccc2ccccc2o1,HepaRG 3D spheroids,"nuclear DNA structure, high-content screening",,"concentration not given, 168 h, 10% FBS medium",,probability of response,63%
CC[C@H](C)[C@H](NC(=O)CN)C(=O)N[C@@H](CC(C)C)C(=O)N[C@@H](CC(=O)O)C(=O)N[C@@H](C)C(=O)N[C@H](C(=O)N[C@@H](CC(C)C)C(=O)N[C@@H](CC(=O)O)C(=O)N[C@@H](C)C(=O)N[C@H](C(=O)N[C@@H](CCCCN)C(=O)N[C@@H](C)C(=O)N[C@H](C(=O)N[C@@H](C)C(=O)N[C@@H](CCCCN)C(=O)N[C@@H](C)C(=O)N[C@H](C(=O)N[C@@H](CCCCN)C(=O)N[C@@H](C)C(=O)N[C@@H](CCCCN)C(=O)N[C@@H](C)C(=O)NCC(N)=O)[C@@H](C)CC)[C@@H](C)CC)[C@@H](C)CC)[C@@H](C)CC,sheep red blood cells,,,"256 µM, 1 h, 37 °C",relative to: Triton X-100,hemolysis,92%
CC[C@H](C)[C@H](N)C(=O)N[C@@H](CCCNC(=N)N)C(=O)N[C@H](C(=O)N[C@@H](Cc1c[nH]c2ccccc12)C(=O)N[C@@H](Cc1ccccc1)C(=O)N[C@H](C(=O)N[C@@H](CCCCN)C(=O)N[C@H](C(=O)N[C@@H](CCCNC(=N)N)C(=O)N[C@@H](CCCCN)C(=O)N[C@@H](Cc1c[nH]c2ccccc12)C(=O)N[C@@H](CCCCN)C(=O)N[C@@H](C)C(=O)N[C@H](C(=O)N[C@@H](Cc1ccc(O)cc1)C(=O)N[C@@H](Cc1c[nH]cn1)C(=O)N[C@H](C(N)=O)[C@@H](C)O)[C@@H](C)CC)C(C)C)[C@@H](C)CC)C(C)C,rat erythrocytes,,,"200 µM, 60 min, 37 °C",,hemolysis,29.9 ± 11.6%
CCN(CC)CCCC[C@H](NC(=O)[C@H](CC(C)C)NC(=O)[C@H](C)NC(=O)[C@H](Cc1ccccc1)NC(=O)c1ccc(C(C)(C)C)cc1)C(=O)N[C@@H](CO)C(=O)OC,HEK-293T,CellTiter-Glo,,"up to 100 µM, 48 h",,cytotoxicity,not toxic
Oc1ccc(C(c2ccc(O)cc2)(C(F)(F)F)C(F)(F)F)cc1,"HepG2 spheroids, dissociated",annexin V-FITC/PI flow cytometry,,"10 µM, 96 h",,viable cells,41.6 ± 15.5%
CC(C)C[C@H](NC(=O)[C@H](CCCNC(=N)N)NC(=O)CNC(=O)CNC(=O)CNC(=O)c1ccc2c(c1)C(=O)OC21c2ccc(O)cc2Oc2cc(O)ccc21)C(=O)N[C@@H](CO)C(=O)N[C@@H](CO)C(=O)N[C@H](C(=O)N[C@@H](CC(=O)O)C(=O)N[C@@H](CO)C(=O)N[C@@H](CC(=O)O)C(=O)N[C@@H](CC(C)C)C(=O)N[C@@H](CO)C(=O)NCC(=O)N[C@@H](CS)C(N)=O)C(C)C,hCMEC/D3 monolayers,"BBB permeability, Transwell, item: CF-labelled compound",EGM-2 medium,"concentration not given, 1 h, apical to basal",relative to: fluorescence added apically,transport ratio,3%
CC[C@@H](C)[C@H]1O[C@@H](c2c(O)c(-c3ccccc3)cn(OC)c2=O)[C@H](C)C[C@@H]1C,BT-549,"cytotoxicity, neutral red",,48 h,,IC50,> 10 µg/mL
Nc1ccn(C[C@@H](CO)OCP(=O)(O)O)c(=O)n1.O.O,HEL,cell morphology,,,,minimal cytotoxic concentration,> 250 µM
O=C(O)/C=C/c1ccc(O)c(O)c1,HaCaT,MTT,,"24 h, 10% FBS",,subcytotoxic concentration,50 µM
CN(N=O)[C@H]1CC[C@@H](c2ccc(Cl)c(Cl)c2)c2ccccc21,TK6 expressing CYP2B6,micronucleus induction,,"24 h, without S9",,LOAEL,< 1 µM
Oc1ccc(C2(c3ccc(O)cc3)c3ccccc3-c3ccccc32)cc1,HepG2 spheroids,annexin V-FITC/PI flow cytometry,,"0.10 µM, 96 h",,necrotic cells,46 ± 26.5%
CC[C@H](C)[C@H](NC(=O)[C@H](C)NC(=O)[C@H](CCCNC(=N)N)NC(=O)[C@H](CCCNC(=N)N)NC(=O)[C@@H](NC(=O)[C@H](CO)NC(=O)[C@H](CC(N)=O)NC(=O)[C@@H](NC(=O)[C@H](Cc1ccccc1)NC(=O)[C@H](CO)NC(=O)[C@H](CCCCN)NC(=O)[C@@H](NC(=O)[C@H](Cc1ccccc1)NC(=O)[C@H](CCCCN)NC(=O)[C@@H](N)C(C)C)C(C)C)[C@@H](C)CC)[C@@H](C)CC)C(=O)N[C@@H](CC(N)=O)C(=O)N[C@@H](CCCCN)C(=O)N[C@@H](Cc1ccc(O)cc1)C(=O)N1CCC[C@H]1C(=O)N1CCC[C@H]1C(=O)N[C@H](C(=O)N[C@@H](CC(N)=O)C(=O)N[C@@H](CC(C)C)C(=O)N[C@@H](CCCCN)C(=O)N[C@H](C(=O)N[C@@H](CCCCN)C(=O)N[C@@H](CS)C(=O)N[C@@H](CC(N)=O)C(=O)N[C@@H](CCCNC(=N)N)C(=O)N[C@@H](CC(C)C)C(=O)N[C@@H](CC(N)=O)C(=O)N[C@@H](CO)C(=O)N[C@H](C(=O)N[C@@H](CC(=O)O)C(=O)N1CCC[C@H]1C(=O)N[C@@H](CCCCN)C(=O)N[C@@H](CCC(N)=O)C(=O)N1CCC[C@H]1C(=O)N1CCC[C@H]1C(=O)N[C@@H](CCCNC(=N)N)C(=O)N1CCC[C@H]1C(=O)N[C@@H](Cc1ccccc1)C(=O)N[C@@H](CCCNC(=N)N)C(=O)N[C@@H](CO)C(=O)N[C@@H](Cc1ccccc1)C(=O)N[C@H](C(=O)O)C(C)C)[C@@H](C)CC)[C@@H](C)CC)[C@@H](C)CC,HaCaT,"cell viability, MTT",,,,CC50,34.8 µM
Cc1cccc(C)c1N(Cn1cccn1)C(=O)CCl,MCF7 AREc32 cells,"cell viability, IncuCyte imaging",,"24 h, freely dissolved concentration",,IC10,112 µM
CC(=O)OC[C@H]1O[C@@H](Oc2cc(O)cc3cc4oc(C)cc(=O)c4c(O)c23)[C@H](O)[C@@H](O)[C@@H]1O,HepaRG co-cultured with HK-2,MTT,,"133.33 µM, 48 h",relative to: untreated control,cell viability,66.9 ± 19.8%
N#C[C@H](C[C@@H]1CCCNC1=O)NC(=O)[C@H](CC1CC1)NC(=O)c1cc2cccc(Cl)c2[nH]1,cryopreserved human hepatocytes,item: CYP2C8,,"10 µM, 72 h",relative to: vehicle,mRNA level,≤ 4.7 fold
Cc1cc2c(c(O)c1O)C(=O)c1c(O)cc(O)cc1C2=O,HepaRG co-cultured with HK-2,MTT,,"33.33 µM, 24 h",relative to: untreated control,cell viability,51.8 ± 7.56%
CN(Cc1cnc2nc(N)nc(N)c2n1)c1ccc(C(=O)N[C@@H](CCC(=O)O)C(=O)O)cc1,WA09 MTHFR C677T(+/-) forebrain rosette tissues,single rosette emergence,,7 days,,LOAEL,0.5 µM

# Some of these lines once more:
Compound,cell line,test,test system,conditions,how to read,quantity,value
COc1cccc2c1C(=O)c1c(O)c3c(c(O)c1C2=O)C[C@@](O)(C(=O)CO)C[C@@H]3O[C@H]1C[C@H](N)[C@H](O)[C@H](C)O1,MCF7,MTT,,"10 µM, 72 h, 10% FBS",,viability,30%
CC(C)C[C@H](NC(=O)[C@H](CCCNC(=N)N)NC(=O)CNC(=O)CNC(=O)CNC(=O)c1ccc2c(c1)C(=O)OC21c2ccc(O)cc2Oc2cc(O)ccc21)C(=O)N[C@@H](CO)C(=O)N[C@@H](CO)C(=O)N[C@H](C(=O)N[C@@H](CC(=O)O)C(=O)N[C@@H](CO)C(=O)N[C@@H](CC(=O)O)C(=O)N[C@@H](CC(C)C)C(=O)N[C@@H](CO)C(=O)NCC(=O)N[C@@H](CS)C(N)=O)C(C)C,hCMEC/D3 monolayers,"BBB permeability, Transwell, item: CF-labelled compound",EGM-2 medium,"concentration not given, 1 h, apical to basal",relative to: fluorescence added apically,transport ratio,3%
